Assay results pooled from the literature.
Each numbered part is a random draw from the data of one study; scales do not carry over between parts.

Block 1
Target: RING finger protein unkempt homolog, zinc fingers 1-6, GST-SBP tag (UNK, Homo sapiens, UniProt Q9C0B0, residues 30-357)
Chain of UniProt Q9C0B0 (30-357, looked up): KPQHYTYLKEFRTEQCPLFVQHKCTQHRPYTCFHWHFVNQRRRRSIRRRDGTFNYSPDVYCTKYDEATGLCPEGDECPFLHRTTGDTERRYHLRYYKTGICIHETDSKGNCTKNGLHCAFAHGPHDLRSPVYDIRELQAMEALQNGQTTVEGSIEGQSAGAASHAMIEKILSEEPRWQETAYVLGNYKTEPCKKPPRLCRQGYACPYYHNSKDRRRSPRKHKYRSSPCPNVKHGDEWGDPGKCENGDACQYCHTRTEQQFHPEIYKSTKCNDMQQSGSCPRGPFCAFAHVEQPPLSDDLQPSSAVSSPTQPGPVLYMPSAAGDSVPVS
Method: RNA Bind-n-Seq
Molecule type: RNA
Medium: in vitro
Concentration: not given
Notes: RNA with constant flanks, ends assumed
Reference: input RNA pool
Direction: higher = stronger binding
`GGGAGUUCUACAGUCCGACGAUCCUGAAAGCUGCCAUUGCAGAAUGUGAAGAAGUUAGAAGAAAAAGUGAACUGUUUAACCCUGUCCGUUCCGACUGUAAGCUAAGGCAAAAAGCAAUUGCAGAAGUUGAUGUGGGUACAGAUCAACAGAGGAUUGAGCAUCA` has a bound/input enrichment of 0.313 ratio.
For `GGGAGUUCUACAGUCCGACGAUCAGCAACGGAGAGCCCCACUUCCUACCAGAUGCAAUGUUUGGGCAACCAGGAGCCCCCGGCCGCACUCCAUUUCUUGGUCAGCAUGGUUUUAAUUUCUUUCCCAGUGGGAUUGACUUCUCACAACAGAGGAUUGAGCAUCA`, the bound/input enrichment was 0.211 ratio.
The bound/input enrichment of `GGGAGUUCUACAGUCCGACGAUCCAGUCCCCGUGUCCCAGUGCAGGACGAUGUGAACAAAAACUCAAAGCGGACCCUCUAUUGCCGUUCUUGAUUCUCGAAAUGUGCUAUUAUUGUUUGUCUUUUUUUUUUUUUUUUUAAAGACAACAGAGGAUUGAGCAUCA` is reported as 0.677 ratio.
`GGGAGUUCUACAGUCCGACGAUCGGGAUUGAUCUCCUUAGGACCUAUCUUUGGCGUUGCCAGUUCCUUUUACCUUUUGUGAGUUCCGGUUUGAUGUGCUUUGGGGCUUUGAUCGGACUUUGUGCUUGCAUUUGCCGAAGCUUACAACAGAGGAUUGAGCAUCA` gave a bound/input enrichment of 2.37 ratio.
`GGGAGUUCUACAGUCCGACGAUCCCUGUUCGAGGCAGCUAUCUUACAGACUGCAUGAAUGUAAGAGUAGGAAUGGGGUGGGUGUCCGGAUCAUUCGGGAUCUUCGACACUUGAAACAAAAUUACACCUGGGAGCUGCAGCCAGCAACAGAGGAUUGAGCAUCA` has a bound/input enrichment of 0.286 ratio.
`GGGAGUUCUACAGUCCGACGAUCAAUCCGUAUGUUUAUACUUCUAAAUCUGCCUGAGUGACCUUGAAAAGGGAACCAGUGUGUUCCGGAGAAAAAAGCAACAGGAUACAAACCAAAGUCUUUUAUAAUUGUGGCAAGAGUUGACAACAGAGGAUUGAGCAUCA` gave a bound/input enrichment of 0.151 ratio.
For `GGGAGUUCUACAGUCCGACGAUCAUGCUCUAACUGGACAUGAAGGAAAGGGGCGAGGGAGGGGGGUGGGAUUUUUGGUGCAAGCCGCACAUGGUUUAAAUAUGAAUGAACAAACCUGUGAUCUAGUCCUUGUCUUGUAAUUGUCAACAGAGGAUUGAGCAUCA`, the bound/input enrichment was 0.194 ratio.
The bound/input enrichment of `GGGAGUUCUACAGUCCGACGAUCCCAGUUUGUAUGUACAUUAUUCAUAUUCCUCUCUGUUGUGUUUCGGGGGGAAAAGACAUUUCCGCCUUUUUUAAAAGUUACUGAUUUAAUUUCAUGUUAUUUGGUUGCAUGAAGUUGCCCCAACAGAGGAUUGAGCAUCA` is reported as 0.522 ratio.

Block 2
Target: RNA binding protein fox-1 homolog 2, RRM domain, GST-SBP tag (RBFOX2, Homo sapiens, UniProt O43251-10, residues 100-194)
Method: RNA Bind-n-Seq
Molecule type: RNA
Medium: in vitro
Concentration: 365 nM
Notes: natural RNA segment, single round, ends assumed
Reference: no-protein control
Direction: higher = stronger binding
Construct (chain): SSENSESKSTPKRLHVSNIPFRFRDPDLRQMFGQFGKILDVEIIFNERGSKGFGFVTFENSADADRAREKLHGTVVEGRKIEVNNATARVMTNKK
`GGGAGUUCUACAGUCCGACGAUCAAUUUCACUGGUUCGUUCAAUCCAGCUUGUUGCUAAUAUUAGUUACCCUUGUUUUAAUGACAGAGAGUGGCUGGAAUCUGUAGCUAGGGGAGGGGCAACACUGUUAGAUGUGGAAUUCUCGGGUGCCAA` — result for “RBNS enrichment (R)”: 0.406.
`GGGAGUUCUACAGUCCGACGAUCUUUUUUACUGGGCUUGGCUGGCCUUGCAGUUUACCAGAUUCAUUUACAGACUCUCUGCUCUGUAUGGCGCCGCCUGCCAUGUCUGUCUUGGUGACUAUCCUGCCUUAAUCUGGAAUUCUCGGGUGCCAA`: “RBNS enrichment (R)” 0.799.
For `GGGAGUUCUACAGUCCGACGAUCUUUAUUUAAUGUAAAUAGUUUUUGUUUCCAAUGAGGCAGUUUCUGGUACUCCUAUGCAAUAUUACUCAGCUUUUUUUAUUGUAAAAAGAAAAAUCAACUCACUGUUCAGUUGGAAUUCUCGGGUGCCAA`, “RBNS enrichment (R)” read 1.3.
Under “RBNS enrichment (R)”, `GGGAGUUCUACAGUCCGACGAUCCUCAGAGGAUGAACUCCCCCCUCAAGUGCACAAGGUAUAGGCAAGGCGGUAGCUGGUUCCCAUGCUCCAGGAUGGAGGUGGCAGCUGCCCUGCCAUCCCUUCUGUCUGCCUGGAAUUCUCGGGUGCCAA` is recorded as 0.207.
Under “RBNS enrichment (R)”, `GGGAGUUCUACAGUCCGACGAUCAUCAGAAACUCUGGGGGCGAGGGCUGAAACCUGCUUUCAUAAGCCCUUCAGGCGAUACUGAUGUAAACUAAAGCUUAAAAACCACCGUUUUACUGUGACUUCAUGAAGAAUGGAAUUCUCGGGUGCCAA` is recorded as 0.2.
Under “RBNS enrichment (R)”, `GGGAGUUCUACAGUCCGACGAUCGUUUGUAAGAAGUACUUUCGUUAAUCUUGCUGCUUAUGUGUCAAUUUAGUGGAAAAGAAAUCCCUUGCUGAAAAAAAAAAUCCCUUUCCAUUCUCUUCCAGUUCUGUGGUUGGAAUUCUCGGGUGCCAA` is recorded as 0.419.
Under “RBNS enrichment (R)”, `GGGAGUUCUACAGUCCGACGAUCUGUUUUGGUUGUUUUCUUAAAAAACAAGUUAAAACCUGACGAUUUCUGCAGGCUGUGUAAGCAUGUUUACCUGUUGGCUUGCUUUGUGUGUCUGUUAAAUGAAUGUCAUAUGGAAUUCUCGGGUGCCAA` is recorded as 7.84.
For `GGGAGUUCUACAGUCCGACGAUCAGGGUGUUUUUCCUGAGUAGGAGUUAAGUUUGGAACUGGUGGUCUUGAAUGUUAAACAUGGAGUGUGACUGGGACAGCCAUGAGUCAGAAUAUAAAUGAAUGCUUAAACAUGGAAUUCUCGGGUGCCAA`, “RBNS enrichment (R)” read 2.97.

Block 3
Target: Sal-like protein 4, full length isoform A (SALL4, Homo sapiens, UniProt Q9UJQ4, residues 1-1053)
Chain of UniProt Q9UJQ4 (whole entry, looked up): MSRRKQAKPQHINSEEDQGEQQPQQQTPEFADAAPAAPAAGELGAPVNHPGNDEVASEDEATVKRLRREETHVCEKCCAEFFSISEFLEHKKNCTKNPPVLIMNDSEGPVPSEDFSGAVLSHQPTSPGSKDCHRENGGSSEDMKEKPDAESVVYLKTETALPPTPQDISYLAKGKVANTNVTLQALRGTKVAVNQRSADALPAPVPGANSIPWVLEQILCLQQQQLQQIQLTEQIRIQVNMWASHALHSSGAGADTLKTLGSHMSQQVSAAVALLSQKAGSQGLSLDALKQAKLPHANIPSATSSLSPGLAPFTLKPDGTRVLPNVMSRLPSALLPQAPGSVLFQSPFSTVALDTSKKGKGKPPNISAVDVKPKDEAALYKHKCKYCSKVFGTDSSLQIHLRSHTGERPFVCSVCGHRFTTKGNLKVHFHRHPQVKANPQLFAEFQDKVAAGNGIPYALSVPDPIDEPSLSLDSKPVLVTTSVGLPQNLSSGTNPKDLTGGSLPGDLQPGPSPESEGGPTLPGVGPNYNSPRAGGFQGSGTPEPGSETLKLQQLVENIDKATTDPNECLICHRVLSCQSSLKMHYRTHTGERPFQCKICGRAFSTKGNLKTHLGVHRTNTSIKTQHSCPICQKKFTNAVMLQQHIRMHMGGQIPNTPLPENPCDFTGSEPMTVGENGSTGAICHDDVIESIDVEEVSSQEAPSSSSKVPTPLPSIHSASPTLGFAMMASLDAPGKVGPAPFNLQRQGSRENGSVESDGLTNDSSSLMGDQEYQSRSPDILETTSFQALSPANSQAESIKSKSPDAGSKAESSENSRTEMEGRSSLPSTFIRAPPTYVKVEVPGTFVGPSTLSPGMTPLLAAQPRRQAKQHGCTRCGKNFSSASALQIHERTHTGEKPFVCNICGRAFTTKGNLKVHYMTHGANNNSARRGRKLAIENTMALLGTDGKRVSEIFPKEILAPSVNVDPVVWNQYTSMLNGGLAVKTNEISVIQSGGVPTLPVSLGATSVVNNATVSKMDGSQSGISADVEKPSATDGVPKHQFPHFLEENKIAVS
Method: universal PBM
Molecule type: double-stranded DNA, one strand shown
Medium: in vitro
Concentration: 600 nM
Notes: 8-mer, flanks averaged, mean of replicates
Direction: higher = stronger binding
With `GTAACGTA` the E-score was 0.12.
`AACGGGAG` has an E-score of -0.00571.
`ACTGATAG` gave an E-score of 0.0636.
The E-score of `ACCGGTAC` is reported as -0.132.
`GCTATACC` gave an E-score of -0.0469.
For `CAGACTCA`, the E-score was -0.11.
For `ACGGCAGG`, the E-score was -0.413.
With `AGTCCTTG` the E-score was -0.058.
For `GCCCGTTA`, the E-score was -0.18.
The E-score of `GAACAGGC` is reported as -0.118.
With `TCTCACAA` the E-score was 0.161.
The E-score of `ACAATTAA` is reported as 0.38.
`ATTCAATC` gave an E-score of 0.185.
The E-score of `ATCAATAG` is reported as 0.301.
The E-score of `GCGTTGAC` is reported as -0.181.
With `GGAGACAA` the E-score was 0.00711.
For `GGGTGCTA`, the E-score was -0.136.
`ACTATAAA` has an E-score of 0.326.
For `AGATACAC`, the E-score was 0.0777.
`ACGTGGAC` has an E-score of -0.219.
With `ACAGACAC` the E-score was -0.0816.
`GTGAAAAA` gave an E-score of 0.26.
With `ATACAGTC` the E-score was 0.0966.

Block 4
Target: Histone acetyltransferase KAT6A, winged helix 1, GST fusion (KAT6A, Homo sapiens, UniProt Q92794, residues 1-85)
Method: protein binding microarray
Molecule type: double-stranded DNA, one strand shown
Medium: in vitro
Concentration: not given
Notes: 8-mer, flanks averaged, mean of 2 arrays, mostly near background
Reference: not given
Direction: higher = stronger binding
Construct (chain): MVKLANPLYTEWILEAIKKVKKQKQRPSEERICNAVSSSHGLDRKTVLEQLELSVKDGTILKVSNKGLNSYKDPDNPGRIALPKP
`CTTAAGTC` gave an E-score of -0.239.
For `GAAGCGCA`, the E-score was 0.308.
For `CGGAGCGA`, the E-score was 0.0918.
`AAGTGGGT` has an E-score of -0.0993.
With `AGACATAG` the E-score was -0.0104.
With `AAGGTTCC` the E-score was -0.129.
`AGGATATC` gave an E-score of -0.191.
With `TGTCCTAA` the E-score was -0.209.
`GACCTTAC` has an E-score of 0.0148.
The E-score of `GCGTTAGA` is reported as 0.0615.
With `CAGTGAAA` the E-score was 0.000185.
`GTGTGTAA` has an E-score of -0.126.
`CAGGCCTA` gave an E-score of -0.162.
For `CTAGTCAC`, the E-score was -0.163.
For `TCTTCACA`, the E-score was -0.305.
`CTAGTGAG` has an E-score of -0.014.
`CACTGTGG` gave an E-score of -0.106.
`ATCCTGAG` has an E-score of -0.114.
The E-score of `TCGAGCCA` is reported as -0.166.
`AGCATGAG` has an E-score of -0.242.
`ACTGAGTC` gave an E-score of -0.123.
`CGCGGTCC` has an E-score of 0.421.
`CCATACGG` has an E-score of 0.311.
`CGCAGTCC` gave an E-score of 0.13.
`ATTGGTCA` gave an E-score of -0.184.

Repeated from above (block 4):
`CGCAGTCC` gave an E-score of 0.13.
For `GAAGCGCA`, the E-score was 0.308.
`CCATACGG` has an E-score of 0.311.
`AGGATATC` gave an E-score of -0.191.
`CAGGCCTA` gave an E-score of -0.162.
`AGCATGAG` has an E-score of -0.242.
`ATCCTGAG` has an E-score of -0.114.
With `CAGTGAAA` the E-score was 0.000185.
With `TGTCCTAA` the E-score was -0.209.
For `TCTTCACA`, the E-score was -0.305.
